Measured values gathered from unrelated publications.
Every numbered part comes from another study and shows a few of its results, in no order. Positions count from the first letter of the parent shown.

Sample 1
Target: Histone acetyltransferase KAT6A, winged helix 2, GST fusion (KAT6A, Homo sapiens, UniProt Q92794, residues 85-181)
Technique: protein binding microarray
Molecule type: double-stranded DNA, one strand shown
Sample: in vitro
Concentration: not given
Setting: 8-mer, flanks averaged, mean of 2 arrays, mostly near background
Baseline: not given
Reading: higher = stronger binding
Quantity: E-score
Construct (chain): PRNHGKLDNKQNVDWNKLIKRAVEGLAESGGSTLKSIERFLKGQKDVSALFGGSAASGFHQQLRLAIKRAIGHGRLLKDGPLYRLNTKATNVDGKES
CGAGACAA: 0.0743
ACTTTTTG: 0.0935
ATCAATCG: 0.00344
ATTAACTC: 0.102
CATACATC: 0.00165
GATTAGGA: -0.105

Sample 2
Target: CCNB2, cyclin fold, Cln2 fusion (human)
Technique: yeast growth competition, sequencing
Sample: yeast
Setting: weak parent motif
Baseline: not given
Reading: higher = stronger binding
Quantity: normalised enrichment score
Starting sequence: MASTL docking peptide (human); PMIAKNLMCELDE
PMITKNLMCELDE [A4T]: 0.492
PMIEKNLMCELDE [A4E]: 0.146
PVIAKNLMCELDE [M2V]: 0.91
PMIAKNLMCELFE [D12F]: 0.269
PMIAKNLMQELDE [C9Q]: 1.14
PMIAKNLMCELQE [D12Q]: 0.258
PMIAKNLMCELCE [D12C]: 0.585

Sample 3
Target: ABI1, truncated, D143A, DHFR fusion (Arabidopsis thaliana)
Technique: DHFR PCA, deep sequencing
Sample: yeast
Setting: methotrexate growth selection, single substitutions
Added: (+)-ABA 4.8 µM
Baseline: wild-type fitted maximum
Reading: higher = stronger binding
Quantity: relative binding score
Starting sequence: PYL1, truncated, DHFR fusion (Arabidopsis thaliana); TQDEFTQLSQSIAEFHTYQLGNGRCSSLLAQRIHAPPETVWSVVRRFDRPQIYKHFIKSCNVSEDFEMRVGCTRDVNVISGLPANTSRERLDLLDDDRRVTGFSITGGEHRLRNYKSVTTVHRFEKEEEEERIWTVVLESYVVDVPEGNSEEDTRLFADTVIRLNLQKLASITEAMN
P37Q: 28.4%
H55L: 77.6%
A170H: -11.6%
L166I: 9.37%
I33Q: 6.02%
P50K: 4.11%

Single results of other studies
PhoQ, residues 284 288 289 292 302 303 TYGVAM — fold induction (PhoP, residues 12 14 15 18 19 AGCRL (Escherichia coli, UniProt P23836); Sort-seq, measured: YFP reporter; E. coli; PhoQ-PhoP variant library, added: 10 µM Mg2+; baseline: high Mg2+ state, higher = stronger signaling): 13.3

Excerpt of the above (sample 1):
ACTTTTTG: 0.0935
ATCAATCG: 0.00344
